Measured values of several laboratories.
Compare with care: the assays were run in different laboratories. Values joined by “and” are separate records of one study, mostly repeats; a detail may differ. Converted amounts (≈) assume the structure as drawn.

Cc1c(COC2CCC(C(F)(F)F)CC2)c(C(=O)Nc2cccc(OC(F)(F)F)c2)nn1CC(F)(F)F (stereo not drawn)  viability reduction (Schistosoma mansoni; microscopic viability scoring; newly transformed schistosomula; 10 µM, 72 h, prescreen): 6.9%
COc1ccc(C[C@H]2NC[C@H](O)[C@H]2OC(C)=O)cc1  inhibition (Trichomonas gallinae; trophozoite viability, CCK-8; 20 µM, 24 h): 97.9%
Nc1ncnc2c([C@@H]3N[C@H](CO)[C@@H](O)[C@H]3O)c[nH]c12  inhibition (Rhinovirus A; viral replication; HRV2 HGP; 94.7 µM): 94.8%
N=C(N)NCCC[C@H](NC(=O)CN)C(=O)N[C@@H](Cc1c[nH]c2ccccc12)C(=O)N[C@@H](CCCNC(=N)N)C(=O)N[C@@H](Cc1c[nH]c2ccccc12)C(=O)N[C@@H](Cc1c[nH]c2ccccc12)C(=O)N[C@@H](Cc1c[nH]c2ccccc12)C(=O)N[C@@H](CCCNC(=N)N)C(=O)N[C@@H](Cc1c[nH]c2ccccc12)C(=O)N[C@@H](CCCNC(=N)N)C(=O)N[C@@H](Cc1ccccc1)C(N)=O  MIC (Candida albicans; broth microdilution; CGMCC 2.209, RPMI 1640-MOPS; 48 h, 30 °C, together with: ZnCl2 8 µM): 8 µM (≈ 14.2 µg/mL)
CC[C@H](C)[C@H](NC(=O)[C@H](C)NC(=O)[C@H](CCCCN)NC(=O)[C@H](CC(C)C)NC(=O)[C@H](C)NC(=O)[C@@H](NC(=O)[C@H](Cc1c[nH]cn1)NC(=O)[C@H](CC(C)C)NC(=O)[C@@H](NC(=O)[C@@H](NC(=O)[C@H](CCCCN)NC(=O)[C@H](C)NC(=O)[C@H](C)NC(=O)[C@H](CO)NC(=O)[C@H](CCCCN)NC(=O)[C@H](Cc1ccccc1)NC(=O)[C@@H](NC(=O)[C@H](CCCCN)NC(=O)[C@H](CC(C)C)NC(=O)[C@H](Cc1ccccc1)NC(=O)[C@H](CO)NC(=O)[C@H](CCCCN)NC(=O)[C@H](Cc1c[nH]c2ccccc12)NC(=O)[C@H](CCCCN)NC(C)=O)[C@@H](C)O)[C@@H](C)O)C(C)C)[C@@H](C)O)C(=O)N[C@@H](CO)C(=O)N[C@@H](CO)C(N)=O  MIC50 (Proteus; 20 strains): > 64 µg/mL
CS(=O)(=O)CCCn1c(Cn2c(=O)n(CC(F)(F)F)c3ccncc32)cc2cc(Cl)ccc21  LS mean difference vs placebo (respiratory syncytial virus; RT-qPCR; hospitalized infants 1-24 months, nasal swab; oral, 2, 1.5 or 1 mg/kg daily, day 28, low dose by age cohort; reference: placebo): 0 log10 copies/mL
COc1cc(C#CC(=O)c2ccccc2)ccc1O  rhamnolipid production (Pseudomonas aeruginosa; 10 µM, 24 h; reference: untreated): 31%
O=c1ccn([C@@H]2O[C@H](CO)[C@@H](O)[C@H]2O)c(=S)[nH]1  EC50 (Dengue virus; viral replication; BHK-21, DENV2): 580 nM
CC1(C)S[C@@H]2[C@H](NC(=O)[C@H](N)c3ccccc3)C(=O)N2[C@H]1C(=O)O  zone of inhibition (Escherichia coli; ΔtolC JW5503-1; 200 µM, together with: 30 µg/mL 2,2'-bipyridyl): 13.5 mm
C[C@@H]1C[C@H](O)[C@]2(O)O[C@@H]3C[C@@]4(C=O)[C@@H](CC[C@@H]5[C@@H]4CC[C@]4(C)[C@@H](C6=CC(=O)OC6)CC[C@]54O)C[C@H]3O[C@@H]2O1  IC50 (Schistosoma mansoni; microscopic viability score; adult worms; 72 h): 370 nM
CCc1cccc(C)c1N(C(=O)CCl)[C@@H](C)COC  germination (Lolium multiflorum; 2.1 µg/mL): 0%
C[N+]1=C2C=C(NCCc3ccc(O)cc3)C(=O)c3[nH]cc(c32)CC1  inhibition (Saccharomyces cerevisiae; cell growth, liquid culture; BY4741; 100 µM, 24 h): 23.6%
[2H]C([2H])([2H])C1(C([2H])([2H])[2H])NC(=O)N(c2ccc(F)c(C(F)(F)F)c2)C1=O  worm burden reduction (Schistosoma mansoni; adult, infected NMRI mice; oral, 100 mg/kg single dose): 98%
C[C@H](CCC(=O)O)[C@H]1CC[C@H]2[C@@H]3C[C@H](O)[C@@H]4C[C@H](O)CC[C@]4(C)[C@H]3CC[C@]12C  IC50 (Bovine alphaherpesvirus 1; viral replication; MDBK): 490 nM
CCn1c(=O)c(-c2cc[nH]n2)cc2c(C)nc(N)nc21  selectivity index (Enterovirus A71; RT-qPCR; RD; post-entry; reference: CC50 over IC50): 41.4
COc1ccccc1/N=N/c1cc(C(=O)O)ccc1-c1ccc(C(=O)O)cc1  viability reduction (Schistosoma mansoni; microscopic viability scoring; newly transformed schistosomula; 10 µM, 72 h, prescreen): 12.5%
Nc1ncnc2c1ncn2[C@@H]1O[C@@H]2COP(=O)(O)O[C@H]3[C@@H](O)[C@H](n4cnc5c(=O)[nH]cnc54)O[C@@H]3COP(=O)(O)O[C@H]2[C@H]1O  fold enrichment (Zika virus; downregulated Reactome pathway, RNA sequencing, refers to: Collagen chain trimerization (R-HSA-8948216); HFF-1; reference: ZIKV-infected untreated): 12.9
C[C@]12CC[C@@H]3c4ccc(O)cc4CC[C@H]3[C@@H]1CC[C@@H]2O  mRNA level (Arabidopsis thaliana; qRT-PCR, refers to: NCED3; 1 µM, unit not given; reference: untreated): 1.27
O=C1C(=O)c2cc(NS(=O)(=O)c3ccc(OC(F)(F)F)cc3)ccc2-c2ccc(NS(=O)(=O)c3ccc(OC(F)(F)F)cc3)cc21  viability reduction (Schistosoma mansoni; microscopic viability scoring; newly transformed schistosomula; 10 µM, 72 h, prescreen): 100%
CN[C@H](CC(C)C)C(=O)N[C@H]1C(=O)N[C@@H](CC(N)=O)C(=O)N[C@H]2C(=O)N[C@H]3C(=O)N[C@H](C(=O)N[C@H](C(=O)O)c4cc(O)cc(O)c4-c4cc3ccc4O)[C@H](O)c3ccc(c(Cl)c3)Oc3cc2cc(c3O[C@@H]2O[C@H](CO)[C@@H](O)[C@H](O)[C@H]2O[C@H]2C[C@](C)(N)[C@H](O)[C@H](C)O2)Oc2ccc(cc2Cl)[C@H]1O  MBC (Staphylococcus aureus; CAAS-2019-CAAS-2019-11 clinical drug-resistant isolate, PBS): 4 µg/mL
OC(c1c(C(F)(F)F)nn(-c2ncccn2)c1Cl)C(F)(F)F (stereo not drawn)  viability reduction (Schistosoma mansoni; microscopic viability scoring; newly transformed schistosomula; 10 µM, 72 h, prescreen): 17.3%
CCCCc1ccc(CNc2nc(N(C)C)nc(N(C)C)c2/N=N/c2ccc(Cl)cc2)cc1  mortality (Ostrinia furnacalis; leaf dipping; 100 mg/L): 73.3%
COC(=O)N[C@H](C(=O)N1CCC[C@H]1c1ncc(-c2ccc(-c3ccc(-c4cnc([C@@H]5CCCN5C(=O)[C@@H](NC(=O)OC)C(C)C)[nH]4)cc3)cc2)[nH]1)C(C)C  combination index (hepatitis C virus; HCV replicon; 90% effect level, together with: IFN-α, ratio 1:1): 0.58 and 0.77
Cc1ncc([N+](=O)[O-])n1CCO  MIC90 (Fusobacterium nucleatum): 0.25 µg/mL (≈ 1.46 µM)
c1ccc(-n2nncc2-c2cc3ccc2CCc2ccc(cc2)CC3)cc1  viability reduction (Schistosoma mansoni; microscopic viability scoring; newly transformed schistosomula; 10 µM, 72 h, prescreen): 17.2%
CC(C)C[C@H](NC(=O)[C@H](CCN)NC(=O)[C@H](CCN)NC(=O)[C@@H](Cc1ccccc1)NC(=O)[C@H](CC(C)C)NC(=O)[C@H](CCN)NC(=O)[C@H](CCN)NC(=O)[C@@H](CCN)NC(=O)[C@@H](N)CSCCOC(=O)c1ccccc1)C(N)=O  MBC (Acinetobacter calcoaceticus; BHI agar spot plating; 24 h, 37 °C): > 128 µM
O=C1C=CC2(C=C1)CNC(=O)C2(Cl)Cl  viability reduction (Schistosoma mansoni; microscopic viability scoring; newly transformed schistosomula; 10 µM, 72 h, prescreen): 20%
Cc1c2c(nn1C)CSCc1cc(n(C)n1)CSc1cc(c3ccccc3c1)OCCCc1c(C(=O)O)n(C)c3c-2c(Cl)ccc13  fold change (Staphylococcus aureus; label-free quantitative proteomics, refers to: SAOUHSC_02828 protein; SA113; concentration not given; reference: untreated control): 9.25
C[C@@H]1C[C@H](O)[C@]2(O)O[C@@H]3C[C@@]4(C)[C@@H](CC[C@@H]5[C@@H]4CC[C@]4(C)[C@@H](C6=CC(=O)OC6)CC[C@]54O)C[C@H]3O[C@@H]2O1  IC50 (Schistosoma mansoni; viability, microscopic viability score; adult worms; 72 h): 220 nM and 200 nM
C[C@@H](O[C@H]1OCCN(Cc2n[nH]c(=O)[nH]2)[C@H]1c1ccc(F)cc1)c1cc(C(F)(F)F)cc(C(F)(F)F)c1  IC50 (Human immunodeficiency virus 1; viral replication; PBMC, subtype F isolate from Romania, X4/R5, SI): 9530 nM

For quick reference, copied from above:
O=C1C=CC2(C=C1)CNC(=O)C2(Cl)Cl  viability reduction (Schistosoma mansoni; microscopic viability scoring; newly transformed schistosomula; 10 µM, 72 h, prescreen): 20%
Cc1c2c(nn1C)CSCc1cc(n(C)n1)CSc1cc(c3ccccc3c1)OCCCc1c(C(=O)O)n(C)c3c-2c(Cl)ccc13  fold change (Staphylococcus aureus; label-free quantitative proteomics, refers to: SAOUHSC_02828 protein; SA113; concentration not given; reference: untreated control): 9.25
C[C@@H]1C[C@H](O)[C@]2(O)O[C@@H]3C[C@@]4(C)[C@@H](CC[C@@H]5[C@@H]4CC[C@]4(C)[C@@H](C6=CC(=O)OC6)CC[C@]54O)C[C@H]3O[C@@H]2O1  IC50 (Schistosoma mansoni; viability, microscopic viability score; adult worms; 72 h): 220 nM and 200 nM
